Experimental data collected from several papers.
Numbered parts are unrelated; each lists some results of a single study.

Set 1
Target: Interferon regulatory factor 5, full length, phosphomimetic (IRF5, Homo sapiens, UniProt Q13568-2, residues 1-514, K96S/S451D/S453D/S456D/S462D)
Method: protein-binding microarray
Form: double-stranded DNA, one strand shown
Sample: in vitro
Tested at: 250 nM
Notes: 60-bp whole probe
Together with: salmon DNA 0.4 mg/ml
Relative to: random background probes
Direction: higher = stronger binding
Constant ends, left off below: GCCTAGCAC … GTCTTGATTCGCTTGACGCTGCTG
Oligonucleotide	log fluorescence [z-score]
TTAGTTATCGGGACTGGGTTAGTGCTA	1.58
TTCGGTATCGACACTGGGTTAGTGCTA	3.69
GACGCACTGGACTATCGGGACGTGCTA	0.717
CTCTCTTTCCAACTCTGTTTGTGCTAG	0.783
AGTCATCTCCAAAGTCAGCCAGTGCTA	-0.0409
TCAAAATTCTAATTAGAACTGTGCTAG	0.323
GCTCATTTTTTTTGCAAGCTGTGCTAG	0.343
GCCGGTTTCGGTTTCGGGACGTGCTAG	10.9
GACGGACTCGGTCTCGGGACGTGCTAG	-0.559
AGTTAATCCCTCTCAGGCATGTGCTAG	0.0764
GATTCTTTCGATGCTAAACGAGTGCTA	8.64
TTAGGTCTCGGTTTTGGTTAGTGCTAG	1.7
GACGGCCTGGGACTGGGGACGTGCTAG	-0.726
GACGGTATCGGTGTCGGGACGTGCTAG	3.72
TAAAGCATTACTTTAGGTTCGTGCTAG	-0.0211

Set 2
Target: Centromere-binding protein 1, full length, N-terminal tag (CBF1, Saccharomyces cerevisiae, UniProt P17106, residues 1-351)
Chain of UniProt P17106 (whole entry, looked up): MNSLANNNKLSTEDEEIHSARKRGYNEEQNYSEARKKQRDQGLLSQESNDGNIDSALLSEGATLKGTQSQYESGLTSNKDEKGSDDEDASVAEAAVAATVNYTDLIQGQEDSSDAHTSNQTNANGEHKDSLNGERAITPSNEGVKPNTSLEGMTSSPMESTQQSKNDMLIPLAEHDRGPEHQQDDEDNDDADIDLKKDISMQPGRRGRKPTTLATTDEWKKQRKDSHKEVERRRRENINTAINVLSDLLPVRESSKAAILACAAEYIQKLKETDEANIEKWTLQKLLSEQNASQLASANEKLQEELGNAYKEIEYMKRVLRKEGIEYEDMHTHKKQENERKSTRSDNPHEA
Method: protein-binding microarray
Form: double-stranded DNA, one strand shown
Sample: in vitro
Tested at: 0.8 µM
Notes: whole 60-bp probe, no competitor
Direction: higher = stronger binding
Constant ends, left off below: … GTCTTGATTCGCTTGACGCTGCTG
Oligonucleotide	fluorescence intensity [a.u.]
GAACTTGAATGATATTTCACATGGTGGATGCCATAG	580
TGTACGAAGCTATCACATGACACTATAGTAGTTAGG	4620
GAATATCTTACTCATCACGCAAGACAGCAGCAGTAG	582
CTATACATTACTTGTGACCACCTATTTACGGCATTC	746
CTACGTAATATAATGTGCATGAAGTACGACCCATTC	552
GAATTTATCTCATACCACGAGAAAAAAAAATCATAG	656
GAATACTTCAACAGATTCGTGATCTGGAAAAGATAG	743
CCTAACTACTATAACGTGATAACATAGCTTCGTACA	1420
GAAATTTGATCATAGCATGTGCTCTATATTGTATAG	1050
GAACCAGAACTTGCGATGGTGATGGCAAAAAGCTAG	521
CTAAGTCACGCTGAACACGCGGCGGTAGCTTCATTC	935
CTATGTTAAATTAAAAAGCTGATGTTGCGTAATTTC	531
CTAACTGAAGTGCAGCTGACGATCCAGTCAGCGTTC	614
CCTAACTACTATAGTTACGTGGTATAGCTTCGTACA	503
CTACTCGTAATGCATCAGATTCTGGTCATGCTTTTC	901
GAATTTTAATTAATTCATGTGCACAGGCCTGCTTAG	593
GAATAGACACTCTATCATCAGAAACATCCGAATTAG	481
CTATTTTCGACGTTAGACGTGCTTCGGCAGATATTC	501
CTAATTTAATAGTTCCACGTGGACGTGTTATTTTTC	4170
CCTAACTACTATAGTGGTCAGACATAGCTTCGTACA	509
GAAATACTCTAATATCTCACCTGATCCTTTTTGTAG	960
CTAAGTAGCGATAATCACGATCTTGTTAATGATTTC	645
CTACGAACGGAAGCGTGCGTGCTCTGAGTTTTTTTC	544
CTACATATATACCGTCATGAAGTAGCTTAACTTTTC	538
CTATCCGCATAATTAAACGTGTGCTGGCCTCGATTC	566

Set 3
Target: Fragile X messenger ribonucleoprotein 1, C-terminal low-complexity region (Fmr1, Mus musculus, UniProt P35922)
Method: RNA Bind-n-Seq
Form: RNA
Sample: in vitro
Tested at: 200 nM
Notes: whole 134-nt RNA, ends assumed
Together with: 150 mM KCl
Relative to: input library
Direction: higher = stronger binding
Constant ends, left off below: GGGAGUUCUACAGUCCGACGAUC … UGGAAUUCUCGGGUGUCAAGG
Oligonucleotide	log2 enrichment
UGCUUGUGUUUCUGACAGAUUCACUGCCUUCUGAGGACUUGGAUCCUGCCGAUCCCCCGAUCUCGGUAACUGUUGGCCUGAUCUGGCUGU	0.306
GUCCUGUGCUACACAUCGUAUGUACCGAAUCGGGGUUUUUUUGGGGUGGGGAAAGGGGAAAGUAUUAUGUUACGCCGUUCGGAUCUGCAC	0.586
CAAGUCCUGUGCUACACAUCGUAUGUACCGAAUCGGGGCCCGGCCCGGCCCGGGGAAAGUAUUAUGUUACGCCGUUCGGAUCUGCACUUC	-0.472
CAAGUCCUGUGCUACACAUCGUAUGUACCGAAUCGGGGCCGGGGCCGGGGCCGGGAAAGUAUUAUGUUACGCCGUUCGGAUCUGCACUUC	-0.474
UCCUGUGCUACACAUCGUAUGUACCGAAUCGGGGAAAAAGGGGAAAAAGGGGAAAAAGGGAAAGUAUUAUGUUACGCCGUUCGGAUCUGC	0.0644
UAACAUUAGAGGAGGAUCUGAUGGAUAUGGCAGUGGACGUGGAUUUGGGGAUGGCUAUAAUGGGUAUGGAGGAGGACCUGGAGGUGGCAA	0.41
UCCUCAAGUCCUGUGCUACACAUCGUAUGUACCGAAUCGGGAGGGAGGAGGGAAAGUAUUAUGUUACGCCGUUCGGAUCUGCACUUCCAG	1.03
CACAGACAACACGCACCCACACAGACACAGAGGGAAGGGGUUGGGAUGGGGACAGGGUGCACAGCAAGGCGGGGUAGGACCCCAGCCCCU	1.2
UGGCCCGGGUGGCAUGCGGGGAGGAAGAGGUGGCCUCAUGGAUCGUGGUGGUCCCGGUGGAAUGUUCAGAGGUGGCCGUGGUGGAGACAG	0.615
UCCUGUGCUACACAUCGUAUGUACCGAAUCGGGAAAAAGGGAAAAAGGGUUUUUUUGGGAAAGUAUUAUGUUACGCCGUUCGGAUCUGCA	-0.326
AAGUCCUGUGCUACACAUCGUAUGUACCGAAUCGGGGAGGGGAAAAAGGGGAGGGGAAAGUAUUAUGUUACGCCGUUCGGAUCUGCACUU	0.915
AAGUCCUGUGCUACACAUCGUAUGUACCGAAUCGGGGCCCGGGCCCGGGGCCCGGGGAAAGUAUUAUGUUACGCCGUUCGGAUCUGCACU	-0.887
UCCUCAAGUCCUGUGCUACACAUCGUAUGUACCGAAUCGGCGGGGCGGCGGGAAAGUAUUAUGUUACGCCGUUCGGAUCUGCACUUCCAG	0.308
UCCUCAAGUCCUGUGCUACACAUCGUAUGUACCGAAUCGGGGCGGGCGGCGGAAAGUAUUAUGUUACGCCGUUCGGAUCUGCACUUCCAG	-0.2

Set 4
Target: Histone acetyltransferase KAT6A, winged helix 2, GST fusion (KAT6A, Homo sapiens, UniProt Q92794, residues 85-181)
Method: protein binding microarray
Form: double-stranded DNA, one strand shown
Sample: in vitro
Tested at: not given
Notes: 8-mer, flanks averaged, mean of 2 arrays, mostly near background
Relative to: not given
Direction: higher = stronger binding
Target sequence (chain): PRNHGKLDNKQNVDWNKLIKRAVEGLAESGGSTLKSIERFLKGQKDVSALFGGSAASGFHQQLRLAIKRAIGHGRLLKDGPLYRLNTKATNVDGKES
Oligonucleotide	E-score
AACCGTGG	-0.155
ATGTGGCG	0.0224
CGCCTGAC	0.0994
CGAAAGAG	-0.0141
GATCGGAC	0.0868
ACATGGAC	-0.0921
TAAACGTA	-0.147
GCCCGAGA	0.244
CTCATGAA	0.0005
CAAGAATG	-0.0304
ACTCGCGC	0.226
TTGCAAAA	0.0191
TTAGGCAA	0.026
ACAAGTTG	-0.126
CATGCCAA	-0.1
AGATAATG	0.00346
ACTAAGGG	-0.111
CCACATTA	-0.133
CGGTGAAA	0.0774
CGCCAATA	0.0465
AATCTTTA	0.0655
TAAGTCCA	-0.0377
CCGCATGC	0.0935
CCTGGTTC	-0.0421
TAAGAGTA	0.0102

Set 5
Target: Protein C-ets-1 (ETS1, Homo sapiens, UniProt P14921, residues 1-441, Y397A, full length assumed)
Method: protein-binding microarray
Form: double-stranded DNA, one strand shown
Sample: in vitro
Tested at: not given
Notes: k-mer, scored over probes, only values ≥0.25
Direction: higher = stronger binding
Residues (chain): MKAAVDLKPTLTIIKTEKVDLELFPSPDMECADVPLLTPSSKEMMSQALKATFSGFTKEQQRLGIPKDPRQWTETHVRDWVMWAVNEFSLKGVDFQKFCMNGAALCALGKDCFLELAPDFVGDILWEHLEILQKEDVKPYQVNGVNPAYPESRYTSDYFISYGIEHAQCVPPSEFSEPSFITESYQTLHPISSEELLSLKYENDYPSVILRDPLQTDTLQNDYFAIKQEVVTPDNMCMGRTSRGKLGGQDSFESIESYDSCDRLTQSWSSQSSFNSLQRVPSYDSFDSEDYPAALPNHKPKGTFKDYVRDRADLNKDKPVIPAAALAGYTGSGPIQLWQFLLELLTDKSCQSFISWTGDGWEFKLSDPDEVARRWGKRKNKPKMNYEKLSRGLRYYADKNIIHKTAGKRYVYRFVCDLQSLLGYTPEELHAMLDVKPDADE
Oligonucleotide	E-score
GACAACAA	0.357
TGCGGCAA	0.26
ACAGACAA	0.256
GGTAACAA	0.27
GTGCGCAC	0.362
ACCCTCCC	0.269
GCATGTCA	0.282
ATCCGGTG	0.267
TGTTACAA	0.267
TAGGCAAA	0.279
GTTTGCAA	0.322
ACAACAGC	0.258

Set 6
Target: Sal-like protein 4, full length isoform A (SALL4, Homo sapiens, UniProt Q9UJQ4, residues 1-1053)
Chain of UniProt Q9UJQ4 (whole entry, looked up): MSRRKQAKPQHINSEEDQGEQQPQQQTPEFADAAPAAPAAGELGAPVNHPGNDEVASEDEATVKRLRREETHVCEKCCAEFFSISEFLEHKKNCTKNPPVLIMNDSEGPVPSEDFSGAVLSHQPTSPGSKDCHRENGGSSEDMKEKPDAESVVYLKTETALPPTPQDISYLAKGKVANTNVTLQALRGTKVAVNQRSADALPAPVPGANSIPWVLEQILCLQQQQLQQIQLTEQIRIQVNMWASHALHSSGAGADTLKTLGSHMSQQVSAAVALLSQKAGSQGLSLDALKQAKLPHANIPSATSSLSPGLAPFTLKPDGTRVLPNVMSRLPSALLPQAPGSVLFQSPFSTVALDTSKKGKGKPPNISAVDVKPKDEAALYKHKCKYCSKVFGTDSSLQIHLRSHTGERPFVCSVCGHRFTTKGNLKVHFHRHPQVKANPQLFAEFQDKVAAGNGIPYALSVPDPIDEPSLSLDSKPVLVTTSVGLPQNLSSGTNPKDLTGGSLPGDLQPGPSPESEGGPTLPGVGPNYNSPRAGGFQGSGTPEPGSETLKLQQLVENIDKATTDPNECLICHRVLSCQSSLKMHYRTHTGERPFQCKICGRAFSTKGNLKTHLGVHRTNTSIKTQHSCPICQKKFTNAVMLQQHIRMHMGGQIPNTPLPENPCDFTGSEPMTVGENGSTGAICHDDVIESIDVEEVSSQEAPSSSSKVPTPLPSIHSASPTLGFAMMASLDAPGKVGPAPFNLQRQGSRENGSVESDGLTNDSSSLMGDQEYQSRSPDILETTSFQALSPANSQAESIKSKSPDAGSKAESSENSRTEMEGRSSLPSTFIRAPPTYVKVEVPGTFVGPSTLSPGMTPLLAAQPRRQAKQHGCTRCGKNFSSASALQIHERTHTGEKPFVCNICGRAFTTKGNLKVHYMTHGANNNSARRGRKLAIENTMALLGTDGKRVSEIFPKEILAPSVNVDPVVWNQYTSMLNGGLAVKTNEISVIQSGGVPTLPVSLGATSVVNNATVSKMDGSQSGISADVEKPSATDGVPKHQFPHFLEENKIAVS
Method: universal PBM
Form: double-stranded DNA, one strand shown
Sample: in vitro
Tested at: 600 nM
Notes: 8-mer, flanks averaged, mean of replicates
Direction: higher = stronger binding
Oligonucleotide	E-score
ACAGTAAC	0.0974
ACAGAGAC	-0.00445
CGTGTGTC	-0.0886
CCTTGGTA	-0.00846
ACCTCAAC	-0.0344
AACAGTGA	0.0946
ACCTGGGG	-0.394
ACGAACCG	-0.207
GAGAAGGC	-0.196
GTTACAGA	0.0162
ATGACGTC	0.00448
GCCGCTAC	-0.358
GACAACAC	-0.119
AACGCCAA	0.114
ATTTACGG	0.19
AACAAATT	0.33
CGCGTATC	-0.0138
CATAGTAG	0.115
ACGAGTAT	0.12
GTCGAGCA	-0.184

Further values, each from its own experiment
Molecule	organism	test	system	setting	scale	quantity	value
GSPLAKAFTSTGL	Saccharomyces cerevisiae	peptide binding, yeast competitive growth sequencing	peptide, cyclin F-Cln2 fusion	library 1	direction not given	enrichment score	0.147

A few entries again (set 2):
Oligonucleotide	fluorescence intensity [a.u.]
CTATCCGCATAATTAAACGTGTGCTGGCCTCGATTC	566
CTAAGTAGCGATAATCACGATCTTGTTAATGATTTC	645
CCTAACTACTATAACGTGATAACATAGCTTCGTACA	1420
CTACGTAATATAATGTGCATGAAGTACGACCCATTC	552
CTACGAACGGAAGCGTGCGTGCTCTGAGTTTTTTTC	544
GAATAGACACTCTATCATCAGAAACATCCGAATTAG	481
CTACATATATACCGTCATGAAGTAGCTTAACTTTTC	538
CTAACTGAAGTGCAGCTGACGATCCAGTCAGCGTTC	614
GAAATTTGATCATAGCATGTGCTCTATATTGTATAG	1050
CTATACATTACTTGTGACCACCTATTTACGGCATTC	746
GAACCAGAACTTGCGATGGTGATGGCAAAAAGCTAG	521
CTAATTTAATAGTTCCACGTGGACGTGTTATTTTTC	4170
CTACTCGTAATGCATCAGATTCTGGTCATGCTTTTC	901
GAACTTGAATGATATTTCACATGGTGGATGCCATAG	580
GAATACTTCAACAGATTCGTGATCTGGAAAAGATAG	743
CTAAGTCACGCTGAACACGCGGCGGTAGCTTCATTC	935
